Published values collected from several papers.
Each numbered part is a random draw from the data of one study; scales do not carry over between parts.
Chain of UniProt P41240 (whole entry, looked up): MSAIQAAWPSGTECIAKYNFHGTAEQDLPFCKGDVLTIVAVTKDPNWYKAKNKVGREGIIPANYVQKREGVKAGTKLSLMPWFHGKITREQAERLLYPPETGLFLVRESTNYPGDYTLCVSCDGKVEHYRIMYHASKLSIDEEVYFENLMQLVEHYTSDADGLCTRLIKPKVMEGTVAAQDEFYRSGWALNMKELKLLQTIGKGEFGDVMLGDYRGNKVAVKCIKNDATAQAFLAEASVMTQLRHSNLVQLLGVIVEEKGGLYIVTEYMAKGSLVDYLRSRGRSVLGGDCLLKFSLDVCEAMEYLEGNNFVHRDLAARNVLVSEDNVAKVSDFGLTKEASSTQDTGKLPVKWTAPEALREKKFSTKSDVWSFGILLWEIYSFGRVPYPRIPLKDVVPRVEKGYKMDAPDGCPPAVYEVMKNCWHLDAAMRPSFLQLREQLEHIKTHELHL
Chain of UniProt P29597 (whole entry, looked up): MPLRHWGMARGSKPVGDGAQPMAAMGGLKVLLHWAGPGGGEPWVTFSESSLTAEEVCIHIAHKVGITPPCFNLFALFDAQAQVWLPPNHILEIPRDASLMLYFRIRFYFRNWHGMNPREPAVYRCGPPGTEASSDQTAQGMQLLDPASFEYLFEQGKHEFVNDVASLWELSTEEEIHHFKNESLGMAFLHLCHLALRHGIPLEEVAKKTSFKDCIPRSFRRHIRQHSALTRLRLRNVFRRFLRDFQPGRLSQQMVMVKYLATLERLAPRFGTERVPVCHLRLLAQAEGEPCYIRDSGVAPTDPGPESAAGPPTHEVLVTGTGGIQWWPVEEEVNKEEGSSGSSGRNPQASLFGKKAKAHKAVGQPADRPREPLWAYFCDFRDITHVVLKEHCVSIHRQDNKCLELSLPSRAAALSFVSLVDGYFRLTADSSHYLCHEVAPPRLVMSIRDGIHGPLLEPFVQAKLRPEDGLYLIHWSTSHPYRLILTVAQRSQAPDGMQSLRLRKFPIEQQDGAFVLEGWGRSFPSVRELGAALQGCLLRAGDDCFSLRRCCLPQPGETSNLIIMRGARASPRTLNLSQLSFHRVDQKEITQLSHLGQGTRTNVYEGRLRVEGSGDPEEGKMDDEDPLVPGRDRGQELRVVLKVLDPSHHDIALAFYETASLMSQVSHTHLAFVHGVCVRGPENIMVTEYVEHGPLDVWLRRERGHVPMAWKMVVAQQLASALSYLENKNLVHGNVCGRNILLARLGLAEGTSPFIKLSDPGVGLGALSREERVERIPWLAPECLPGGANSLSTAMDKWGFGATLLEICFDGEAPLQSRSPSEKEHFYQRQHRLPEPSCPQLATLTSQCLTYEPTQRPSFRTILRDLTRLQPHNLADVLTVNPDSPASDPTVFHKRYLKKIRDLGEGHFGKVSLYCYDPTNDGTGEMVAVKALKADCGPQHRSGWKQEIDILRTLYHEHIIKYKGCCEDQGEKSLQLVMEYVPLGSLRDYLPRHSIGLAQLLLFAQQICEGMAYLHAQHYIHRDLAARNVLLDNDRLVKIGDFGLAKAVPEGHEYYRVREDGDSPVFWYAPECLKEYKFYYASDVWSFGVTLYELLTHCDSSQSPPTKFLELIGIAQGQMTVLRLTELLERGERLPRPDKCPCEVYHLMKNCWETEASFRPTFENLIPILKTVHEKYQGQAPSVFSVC
Chain of UniProt Q6PHR2 (whole entry, looked up): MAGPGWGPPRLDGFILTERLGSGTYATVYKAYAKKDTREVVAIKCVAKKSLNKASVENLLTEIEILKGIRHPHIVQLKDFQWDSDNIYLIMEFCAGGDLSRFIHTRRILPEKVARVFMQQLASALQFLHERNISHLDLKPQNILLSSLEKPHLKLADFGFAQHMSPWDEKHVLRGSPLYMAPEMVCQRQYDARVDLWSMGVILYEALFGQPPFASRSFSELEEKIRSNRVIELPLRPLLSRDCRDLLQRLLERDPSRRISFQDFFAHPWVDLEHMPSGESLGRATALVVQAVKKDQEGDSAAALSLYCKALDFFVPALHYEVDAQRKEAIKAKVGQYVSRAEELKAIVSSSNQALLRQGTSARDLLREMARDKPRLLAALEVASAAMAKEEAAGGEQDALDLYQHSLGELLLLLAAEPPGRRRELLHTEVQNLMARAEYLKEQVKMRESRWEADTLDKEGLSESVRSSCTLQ
Chain of UniProt Q9UHD2 (whole entry, looked up): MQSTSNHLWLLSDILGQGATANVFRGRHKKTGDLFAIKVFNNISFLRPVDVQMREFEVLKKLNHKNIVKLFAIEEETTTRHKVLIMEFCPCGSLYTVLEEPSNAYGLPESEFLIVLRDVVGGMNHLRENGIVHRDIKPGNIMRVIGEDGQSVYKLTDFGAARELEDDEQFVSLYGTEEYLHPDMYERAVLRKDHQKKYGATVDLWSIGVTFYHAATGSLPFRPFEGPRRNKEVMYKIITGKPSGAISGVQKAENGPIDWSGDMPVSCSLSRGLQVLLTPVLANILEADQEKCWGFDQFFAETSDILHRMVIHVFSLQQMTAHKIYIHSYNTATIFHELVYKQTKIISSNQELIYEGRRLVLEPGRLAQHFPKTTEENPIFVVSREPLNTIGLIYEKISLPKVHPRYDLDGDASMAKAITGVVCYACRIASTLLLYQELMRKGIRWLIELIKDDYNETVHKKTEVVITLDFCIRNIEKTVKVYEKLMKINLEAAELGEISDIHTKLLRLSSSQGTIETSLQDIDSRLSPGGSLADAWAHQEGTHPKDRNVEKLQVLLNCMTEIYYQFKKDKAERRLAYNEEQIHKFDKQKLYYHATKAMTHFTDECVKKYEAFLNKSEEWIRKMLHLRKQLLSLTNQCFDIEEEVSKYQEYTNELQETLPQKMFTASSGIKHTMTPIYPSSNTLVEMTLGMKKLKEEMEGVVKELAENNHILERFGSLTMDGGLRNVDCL

Sample 1
Target: Protein kinase C gamma type (PRKCG, Homo sapiens, UniProt P05129)
Effect on: enzyme activity
Action: inhibitor
Tested at: 0.5 µM
Reference: control
Quantity: remaining activity
O=c1c2ccccc2[nH]c(=S)n1CCN1CCC(=C(c2ccc(F)cc2)c2ccc(F)cc2)CC1: 100%
Cc1cccc(-c2[nH]c(C(C)(C)C)nc2-c2ccc3c(c2)OCO3)n1: 107%
C#Cc1cccc(Nc2ncnc3cc(OCCOC)c(OCCOC)cc23)c1: 84.1%
CCOC(=O)c1c(C)[nH]c(/C=C2\C(=O)Nc3ccccc32)c1C: 91.9%
Cc1nc(-c2ccccc2)c(-c2ccncc2)o1: 101%
Cn1sc(=O)n(Cc2ccccc2)c1=O: 86.6%
Nc1[nH]nc2nc3ccccc3nc12: 97.3%
Nc1ccc2ncnc(NCCc3ccc(Oc4ccccc4)cc3)c2c1: 95.2%
COc1ccc(CNC(=O)Nc2ncc([N+](=O)[O-])s2)cc1: 99.8%
COc1ccc(OC)c2c(=S)c3ccccc3[nH]c12: 77.6%
Cc1ccc(Nc2nccc(N(C)c3ccc4c(C)n(C)nc4c3)n2)cc1S(N)(=O)=O: 93.5%
CO[C@H]1C[C@@H]2CC[C@@H](C)[C@@](O)(O2)C(=O)C(=O)N2CCCC[C@H]2C(=O)O[C@H]([C@H](C)C[C@@H]2CC[C@@H](O)[C@H](OC)C2)CC(=O)[C@H](C)/C=C(\C)[C@@H](O)[C@@H](OC)C(=O)[C@H](C)C[C@H](C)/C=C/C=C/C=C/1C: 106%
O=C(Nc1cccc(Nc2cc(Nc3cccc(C(F)(F)F)c3)ncn2)c1)C1CC1: 102%
O=C1NC(=O)C(c2cn(CCCn3ccnc3)c3ccccc23)=C1Nc1ccccc1: 51.6%
COc1cc2nccc(Oc3ccc(NC(=S)NC(=O)c4ccccc4C)cc3)c2cc1OC: 100%
Nc1ncnc2n[nH]c(Nc3ccc(F)cc3)c12: 96%

Sample 2
Compound: CN([C@@H]1CCc2c(CC(=O)O)c3ccccc3n2C1)S(=O)(=O)c1ccc(F)cc1
Effect on: cell-free assay
Method: competition with immobilised ligand
Tested at: 1 µM
Quantity: remaining binding
NIM1K (Homo sapiens, UniProt Q8IY84): 100%
PIK3CA (Homo sapiens, UniProt P42336): 100%
MAP3K13 (Homo sapiens, UniProt O43283): 100%
CDK16 (Homo sapiens, UniProt Q00536): 98%
Non-receptor tyrosine-protein kinase TYK2, JH2 (TYK2, Homo sapiens, UniProt P29597): 100%
ULK3 (Homo sapiens, UniProt Q6PHR2): 80%
RET (Homo sapiens, UniProt P07949): 100%
TIE1 (Homo sapiens, UniProt P35590): 89%
TGFBR2 (Homo sapiens, UniProt P37173): 100%
ERBB2 (Homo sapiens, UniProt P04626): 100%
RIOK2 (Homo sapiens, UniProt Q9BVS4): 90%
CDK8 (Homo sapiens, UniProt P49336): 100%
SIK3 (Homo sapiens, UniProt Q9Y2K2): 98%
PDPK1 (Homo sapiens, UniProt O15530): 100%
NUAK2 (Homo sapiens, UniProt Q9H093): 100%
MAPK13 (Homo sapiens, UniProt O15264): 91%
PIM3 (Homo sapiens, UniProt Q86V86): 100%
CSK (Homo sapiens, UniProt P41240): 100%
TBK1 (Homo sapiens, UniProt Q9UHD2): 100%
EPHA6 (Homo sapiens, UniProt Q9UF33): 91%

Sample 3
Target: Eukaryotic initiation factor 4A-I (EIF4A1, Homo sapiens, UniProt P60842, residues 1-406, full length assumed)
Chain of UniProt P60842 (whole entry, looked up): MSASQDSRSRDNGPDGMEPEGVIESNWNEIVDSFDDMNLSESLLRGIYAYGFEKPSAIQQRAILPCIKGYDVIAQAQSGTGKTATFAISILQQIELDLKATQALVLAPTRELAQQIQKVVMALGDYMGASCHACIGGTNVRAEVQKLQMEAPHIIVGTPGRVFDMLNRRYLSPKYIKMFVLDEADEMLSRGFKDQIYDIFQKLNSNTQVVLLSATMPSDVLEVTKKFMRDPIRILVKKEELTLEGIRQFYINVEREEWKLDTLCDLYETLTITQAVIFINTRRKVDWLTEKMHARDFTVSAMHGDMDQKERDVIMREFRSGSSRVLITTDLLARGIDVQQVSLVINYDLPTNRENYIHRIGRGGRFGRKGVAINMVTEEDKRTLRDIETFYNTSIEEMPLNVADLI
Method: RNA Bind-n-Seq
Form: RNA
Medium: in vitro
Tested at: 15 pmol
Notes: 4-mer, random 30-nt RNA, single round
With: DMSO vehicle, 2 mM AMP-PNP
Reference: input library
Direction: higher = stronger binding
Quantity: 4-mer enrichment
ACUU: 0.878 fold
GUUA: 0.761 fold
AGGU: 0.896 fold
GCGG: 1.13 fold
ACAG: 1.06 fold
AUUU: 0.942 fold
AUCC: 1.28 fold
UUAC: 0.907 fold

Sample 4
Target: Sal-like protein 4, full length isoform A (SALL4, Homo sapiens, UniProt Q9UJQ4, residues 1-1053)
Chain of UniProt Q9UJQ4 (whole entry, looked up): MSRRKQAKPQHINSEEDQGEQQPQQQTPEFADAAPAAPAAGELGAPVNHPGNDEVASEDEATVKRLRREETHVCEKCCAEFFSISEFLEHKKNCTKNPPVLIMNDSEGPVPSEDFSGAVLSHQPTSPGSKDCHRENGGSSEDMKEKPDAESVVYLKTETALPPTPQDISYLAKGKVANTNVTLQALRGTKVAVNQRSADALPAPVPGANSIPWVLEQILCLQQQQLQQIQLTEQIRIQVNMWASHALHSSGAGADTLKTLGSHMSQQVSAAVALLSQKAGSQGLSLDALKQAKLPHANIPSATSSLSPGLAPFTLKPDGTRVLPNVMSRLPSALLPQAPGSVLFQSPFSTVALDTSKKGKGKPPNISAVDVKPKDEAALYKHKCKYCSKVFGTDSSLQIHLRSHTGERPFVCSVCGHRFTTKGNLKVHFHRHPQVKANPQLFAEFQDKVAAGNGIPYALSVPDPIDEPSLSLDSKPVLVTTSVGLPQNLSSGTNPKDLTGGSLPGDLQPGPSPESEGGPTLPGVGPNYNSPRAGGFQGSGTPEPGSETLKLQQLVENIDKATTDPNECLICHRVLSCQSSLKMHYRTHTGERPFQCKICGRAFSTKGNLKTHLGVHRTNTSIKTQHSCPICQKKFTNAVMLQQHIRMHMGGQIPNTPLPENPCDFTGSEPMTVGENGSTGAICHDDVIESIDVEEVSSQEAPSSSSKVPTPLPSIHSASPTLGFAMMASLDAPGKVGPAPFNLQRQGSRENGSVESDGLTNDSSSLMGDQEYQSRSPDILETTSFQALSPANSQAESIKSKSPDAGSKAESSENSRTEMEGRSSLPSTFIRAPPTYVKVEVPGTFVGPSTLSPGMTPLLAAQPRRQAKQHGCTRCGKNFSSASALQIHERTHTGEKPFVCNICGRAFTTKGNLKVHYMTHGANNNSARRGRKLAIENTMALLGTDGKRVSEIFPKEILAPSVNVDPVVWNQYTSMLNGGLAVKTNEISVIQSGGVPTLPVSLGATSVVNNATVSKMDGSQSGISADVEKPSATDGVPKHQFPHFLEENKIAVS
Method: universal PBM
Form: double-stranded DNA, one strand shown
Medium: in vitro
Tested at: 600 nM
Notes: 8-mer, flanks averaged, mean of replicates
Direction: higher = stronger binding
Quantity: E-score
GGCGGCAA: -0.231
TAGTAATA: 0.413
CATTAAAG: 0.209
CACTACGG: -0.313
TACGGTAA: 0.27
CAGCGGTC: -0.273
AGCTGCTA: -0.109
CCGATACG: -0.205

Repeated from above (sample 1):
CO[C@H]1C[C@@H]2CC[C@@H](C)[C@@](O)(O2)C(=O)C(=O)N2CCCC[C@H]2C(=O)O[C@H]([C@H](C)C[C@@H]2CC[C@@H](O)[C@H](OC)C2)CC(=O)[C@H](C)/C=C(\C)[C@@H](O)[C@@H](OC)C(=O)[C@H](C)C[C@H](C)/C=C/C=C/C=C/1C: 106%
O=C(Nc1cccc(Nc2cc(Nc3cccc(C(F)(F)F)c3)ncn2)c1)C1CC1: 102%
O=C1NC(=O)C(c2cn(CCCn3ccnc3)c3ccccc23)=C1Nc1ccccc1: 51.6%
COc1cc2nccc(Oc3ccc(NC(=S)NC(=O)c4ccccc4C)cc3)c2cc1OC: 100%
Nc1ncnc2n[nH]c(Nc3ccc(F)cc3)c12: 96%
